Measurements collected from several papers.
Lines come from different studies, so protocols differ.

| SMILES | assay | system | setting | scale | endpoint | result |
| --- | --- | --- | --- | --- | --- | --- |
| COc1ccc(C[C@@H]2NC(=O)[C@H]([C@@H](C)O)NC(=O)[C@@H]3[C@@H]4CCN3C(=O)[C@@H]3Cc5cn(c6ccc(F)cc56)CCCCCCN(Cc5ccc(cc5)CCNC(=O)[C@]5(C)CCCN5C2=O)C(=O)CCC(=O)N[C@@H](C)C(=O)N[C@H](CNC(=O)CCCCC[N+](C)(C)C)C(=O)N[C@@H](Cc2cccc(c2)CNC(=O)CO4)C(=O)N3)cc1 |  | healthy fasted humans, plasma | oral, 10 mg once daily, day 14, geometric mean, added: sodium caprate 360 mg |  | Cmax | 10.6 nM |
| O[C@H]1CCCN[C@@H]1CCCn1cnc2c(Cl)c(Cl)ccc21 |  | healthy human volunteers, plasma | oral, 100 mg, day 1, multiple ascending dose |  | Cmax | 95.7 ng/mL |
| CC[C@@]1(O)C(=O)OCc2c1cc1n(c2=O)Cc2cc3c(CN(C)C)c(O)ccc3nc2-1 |  | human patients, plasma | oral, 8 mg weekly, MTD arm, weekly dosing, added: pazopanib | baseline: with pazopanib over alone | Cmax ratio | 1.89 |
| Cc1cnc(C(=O)N[C@H]2CCCCC/C=C\[C@@H]3C[C@@]3(C(=O)NS(=O)(=O)C3CC3)NC(=O)[C@@H]3C[C@@H](Oc4nc5ccccc5c5ccccc45)CN3C2=O)cn1 |  | healthy human volunteers, plasma | oral, dose not given, added: rosuvastatin plus 2D regimen |  | Cmax | 413 ng/mL |
| [O-][S+]1CCc2nc(N3CCC(c4ncc(Cl)cn4)CC3)nc(NC3(CO)CCC3)c21 (stereo not shown) |  | human, plasma | oral, 6 mg twice daily, fed, geometric mean |  | Cmax at steady state | 164 nM |
| N#Cc1ccc(N2N=C3c4ccc(C(=O)N5CCC(O)CC5)nc4CC[C@@H]3[C@@H]2C2CCCC2)cc1Cl |  | human, plasma | added: itraconazole | baseline: with itraconazole over alone | Cmax ratio | ~1.1 fold |
| COc1ccsc1CNCC[C@@]1(c2ccccn2)CCOC2(CCCC2)C1 |  | human, severe hepatic impairment | intravenous, dose-normalised | baseline: normal hepatic function | Cmax ratio | 24% |
| C=C1C[C@H]2[C@@H]3CC[C@H](O)[C@@]3(C)CC[C@@H]2[C@@]2(C)C=CC(=O)C=C12 | measured: conjugated compound | human, plasma |  | baseline: UGT2B17 *1/*1 over *2/*2 | Cmax ratio | ~8 fold |
| CCCCCOc1ccc(-c2ccc(-c3ccc(C(=O)N[C@H]4C[C@@H](O)[C@@H](O)NC(=O)[C@@H]5[C@@H](O)[C@@H](C)CN5C(=O)[C@H]([C@@H](C)O)NC(=O)[C@H]([C@H](O)[C@@H](O)c5ccc(O)cc5)NC(=O)[C@@H]5C[C@@H](O)CN5C(=O)[C@H]([C@@H](C)O)NC4=O)cc3)cc2)cc1 |  | human neonates, plasma | intravenous, 1.5 mg/kg/day after 3 mg/kg loading |  | Cmax steady state | 3900 ng/mL |
| COC(=O)N[C@H](C(=O)N1CCC[C@H]1C(=O)Nc1ccc([C@@H]2CC[C@@H](c3ccc(NC(=O)[C@@H]4CCCN4C(=O)[C@@H](NC(=O)OC)C(C)C)cc3)N2c2ccc(C(C)(C)C)cc2)cc1)C(C)C |  | healthy human volunteers, plasma | oral, dose not given, alone, omeprazole interaction study |  | Cmax | 138 ng/mL |

For quick reference, copied from above:
| SMILES | assay | system | setting | scale | endpoint | result |
| --- | --- | --- | --- | --- | --- | --- |
| Cc1cnc(C(=O)N[C@H]2CCCCC/C=C\[C@@H]3C[C@@]3(C(=O)NS(=O)(=O)C3CC3)NC(=O)[C@@H]3C[C@@H](Oc4nc5ccccc5c5ccccc45)CN3C2=O)cn1 |  | healthy human volunteers, plasma | oral, dose not given, added: rosuvastatin plus 2D regimen |  | Cmax | 413 ng/mL |
